Assay results from different studies.
Parts stem from different laboratories: compare values within a part only.

Block 1 — method: protein-binding microarray; form: double-stranded DNA, one strand shown; medium: in vitro; tested at: 250 nM; notes: 60-bp whole probe; added: salmon DNA 0.4 mg/ml; reference: random background probes; reading: higher = stronger binding; shared flanks, not repeated: GCCTAGCAC … GTCTTGATTCGCTTGACGCTGCTG
Target: Interferon regulatory factor 5, full length, phosphomimetic (IRF5, Homo sapiens, UniProt Q13568-2, residues 1-514, K96S/S451D/S453D/S456D/S462D)
`TCAAATTGTCCTTTCACACTGTGCTAG` gave a log fluorescence of 0.978 z-score.
With `CCCATTCTCAGCCCTGCGCATGTGCTA` the log fluorescence was 0.0435 z-score.
The log fluorescence of `TTAGGTATCCTACTGCTTTCGTGCTAG` is reported as 1.21 z-score.
For `CCTAATCTCAGCCTCCGTCAGTGCTAG`, the log fluorescence was -0.22 z-score.
With `TTAGGTCTCGGCCTGGGTTAGTGCTAG` the log fluorescence was -0.202 z-score.
With `CCTTGCATGTTTTTGACAAAGTGCTAG` the log fluorescence was 0.104 z-score.
For `TCATTTGTATTTTTGATACTGTGCTAG`, the log fluorescence was 1.21 z-score.
`TTAGAACTGAGTTTCGTTTAGTGCTAG` gave a log fluorescence of 7.68 z-score.

Block 2 — target: Sox-I, HMG box (Salpingoeca helianthica); method: Spec-seq; form: double-stranded DNA, one strand shown; medium: in vitro; tested at: not given; notes: whole probe, mean of replicates; reference: not given; reading: lower = stronger binding; shared flanks, not repeated: GAGTCGTCTCGTCAGCAC … CCGTAGAGCACTCAGGTC
Residues (chain): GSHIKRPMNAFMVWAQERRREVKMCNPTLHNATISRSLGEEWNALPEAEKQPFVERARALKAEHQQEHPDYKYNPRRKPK
For `CATATCC`, “relative binding energy” read 0.671 ln ratio.
For `CATCGAC`, “relative binding energy” read 0.825 ln ratio.
`GACTGTT` — result for “relative binding energy”: -0.326 ln ratio.
For `CATCTGG`, “relative binding energy” read 1.34 ln ratio.
`GTGTGTT`: “relative binding energy” 0.384 ln ratio.
Under “relative binding energy”, `ATGGGTT` is recorded as 0.532 ln ratio.
For `CATTCTG`, “relative binding energy” read 0.77 ln ratio.
For `CATGCCA`, “relative binding energy” read 1.09 ln ratio.

Block 3 — read-out: enzyme activity; action: inhibitor; tested at: 0.5 µM; reference: control
Target: Casein kinase I isoform epsilon (CSNK1E, Homo sapiens, UniProt P49674)
Chain of UniProt P49674 (whole entry, looked up): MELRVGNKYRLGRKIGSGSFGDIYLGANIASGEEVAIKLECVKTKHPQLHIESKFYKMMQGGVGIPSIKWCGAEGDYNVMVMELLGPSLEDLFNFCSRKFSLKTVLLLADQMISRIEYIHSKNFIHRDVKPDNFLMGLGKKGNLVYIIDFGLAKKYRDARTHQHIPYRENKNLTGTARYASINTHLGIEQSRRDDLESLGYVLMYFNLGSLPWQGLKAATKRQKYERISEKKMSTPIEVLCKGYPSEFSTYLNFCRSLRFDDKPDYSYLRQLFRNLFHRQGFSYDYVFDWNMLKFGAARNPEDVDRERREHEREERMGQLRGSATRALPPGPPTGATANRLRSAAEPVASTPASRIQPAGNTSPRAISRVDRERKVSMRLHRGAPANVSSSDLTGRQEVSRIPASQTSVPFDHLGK
With Nc1ccc2ncnc(NCCc3ccc(Oc4ccccc4)cc3)c2c1 the remaining activity was 148%.
For CNC(=O)c1cc(Oc2ccc(NC(=O)Nc3ccc(Cl)c(C(F)(F)F)c3)cc2)ccn1, the remaining activity was 95.9%.
COc1ccc(OC)c2c(=S)c3ccccc3[nH]c12 gave a remaining activity of 90.3%.
For C#Cc1cccc(Nc2ncnc3cc(OCCOC)c(OCCOC)cc23)c1, the remaining activity was 98.2%.
With O=C(CCCc1ccc(-c2ccccc2F)cc1)Nc1ccc(O)cc1 the remaining activity was 99.4%.
Cc1nc(-c2ccccc2)c(-c2ccncc2)o1 has a remaining activity of 69.9%.
The remaining activity of O=C1NC(=O)C(c2cn(CCCn3ccnc3)c3ccccc23)=C1Nc1ccccc1 is reported as 96.7%.
O=S(=O)(c1cccc2cnccc12)N1CCCNCC1 has a remaining activity of 99.3%.
CCOC(=O)c1c(C)[nH]c(/C=C2\C(=O)Nc3ccccc32)c1C has a remaining activity of 73.7%.
COc1ccc(CNC(=O)Nc2ncc([N+](=O)[O-])s2)cc1 gave a remaining activity of 102%.
The remaining activity of Cc1cccc(-c2[nH]c(C(C)(C)C)nc2-c2ccc3c(c2)OCO3)n1 is reported as 71.5%.
The remaining activity of COc1ccc(C(=O)Nc2sc3c(c2C(N)=O)CCCC3)cc1OC is reported as 94%.
With COc1cc2ncnc(Nc3ccc(Oc4ccccc4)cc3)c2cc1OC the remaining activity was 100%.
With O=C(Nc1cccc(Nc2cc(Nc3cccc(C(F)(F)F)c3)ncn2)c1)C1CC1 the remaining activity was 98.1%.

Block 4 — read-out: binding; method: radioligand binding; tested at: 10 µM
Target: Histamine H2 receptor (HRH2, Homo sapiens, UniProt P25021)
Chain of UniProt P25021 (whole entry, looked up): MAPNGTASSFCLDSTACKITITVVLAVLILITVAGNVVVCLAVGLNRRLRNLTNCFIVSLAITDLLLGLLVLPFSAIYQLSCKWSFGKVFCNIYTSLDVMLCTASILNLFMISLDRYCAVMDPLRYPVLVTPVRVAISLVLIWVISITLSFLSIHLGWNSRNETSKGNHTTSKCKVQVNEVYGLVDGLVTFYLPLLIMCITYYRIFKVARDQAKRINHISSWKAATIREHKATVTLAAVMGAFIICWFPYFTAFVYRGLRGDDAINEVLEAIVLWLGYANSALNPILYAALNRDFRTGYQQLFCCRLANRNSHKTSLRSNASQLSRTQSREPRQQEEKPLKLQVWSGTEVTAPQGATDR
With CC(=O)Nc1nc(CN2CCC[C@H](Cc3cc(C)nc(C)c3)C2)cs1 the inhibition was -13.2%.
CC1=C(C#N)[C@@H](c2ccc3[nH]nc(C)c3c2)C(C#N)=C(c2ccc(Cl)cc2)N1 has an inhibition of 14.1%.
With Cc1c[nH]c2nccc(Oc3c(F)cc(Nc4cc(Cl)nc(N)n4)cc3F)c12 the inhibition was 23.7%.
For C[C@@]1(Cc2ccc(C#N)cc2)C(=O)N(c2cc(Cl)cc(Cl)c2)c2ncc(C(=O)NC3(c4nc(C5CCC5)no4)CC3)n21, the inhibition was 11%.
With Cc1cc(-n2nc(Cc3cc(F)cc(C(F)(F)F)c3)nc2C)ccc1C(N)=O the inhibition was 6.28%.
For C[C@H](NC(=O)c1cnc2n1[C@](C)(Cc1ccc(C#N)cc1)C(=O)N2c1cc(Cl)c(F)c(Cl)c1)C(=O)NC1(c2ccccn2)CC1, the inhibition was 11.8%.
The inhibition of CC(=O)c1c(NS(C)(=O)=O)c2cc(-c3ccc(Cl)cc3)c(-c3ccc(Cl)cc3Cl)nc2n(C)c1=O is reported as 13.8%.
CN(C)C(=O)Cn1cc(-c2nc([C@@](C)(c3ccc(-c4cnc(N)nc4)cc3)C3CC3)no2)cn1 gave an inhibition of -8.4%.
CN1CCN(C(=O)C(C)(C)c2ccc(C(=O)Nc3cn4cc(-c5ccncc5)ccc4n3)cc2)CC1 gave an inhibition of 19.4%.
The inhibition of Cc1cc(C)c(-n2ccn3nc(-c4cccnc4)cc23)cc1NC(=O)c1cc(C#N)cc(S(F)(F)(F)(F)F)c1 is reported as 25.6%.
CCCOc1ccc([C@H]2[C@H](C(=O)O)[C@@H](c3ccc4c(c3)OCO4)CN2CC(=O)Nc2c(CC)cccc2CC)cc1 gave an inhibition of 5.77%.

For quick reference, copied from above (block 2):
For `CATATCC`, “relative binding energy” read 0.671 ln ratio.
For `CATCGAC`, “relative binding energy” read 0.825 ln ratio.
`GACTGTT` — result for “relative binding energy”: -0.326 ln ratio.
For `CATCTGG`, “relative binding energy” read 1.34 ln ratio.
`GTGTGTT`: “relative binding energy” 0.384 ln ratio.
